Experimental data collected from several papers.
Lines come from different studies, so protocols differ. Several values in a cell are separate wells, animals, samples, runs or records. Numbers after ± are the reported error.
Sequence of UniProt Q9Y2J8 (whole entry, looked up): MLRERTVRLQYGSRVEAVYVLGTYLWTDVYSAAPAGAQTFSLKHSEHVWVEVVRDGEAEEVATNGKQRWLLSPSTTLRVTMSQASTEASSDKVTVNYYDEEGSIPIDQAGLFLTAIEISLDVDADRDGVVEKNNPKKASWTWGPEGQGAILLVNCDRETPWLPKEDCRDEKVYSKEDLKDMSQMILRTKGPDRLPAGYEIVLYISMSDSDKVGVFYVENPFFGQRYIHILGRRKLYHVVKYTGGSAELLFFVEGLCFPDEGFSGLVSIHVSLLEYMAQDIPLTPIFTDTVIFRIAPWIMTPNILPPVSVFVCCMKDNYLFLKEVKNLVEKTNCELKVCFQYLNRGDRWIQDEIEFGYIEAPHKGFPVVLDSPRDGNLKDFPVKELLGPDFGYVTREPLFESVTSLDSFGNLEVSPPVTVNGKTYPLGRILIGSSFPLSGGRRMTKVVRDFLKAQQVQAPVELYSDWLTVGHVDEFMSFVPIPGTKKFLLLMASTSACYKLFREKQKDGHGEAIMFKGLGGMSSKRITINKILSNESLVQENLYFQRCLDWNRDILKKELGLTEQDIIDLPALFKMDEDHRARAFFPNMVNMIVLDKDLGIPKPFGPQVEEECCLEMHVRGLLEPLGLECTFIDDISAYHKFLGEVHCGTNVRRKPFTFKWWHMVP
Sequence of UniProt O13828 (whole entry, looked up): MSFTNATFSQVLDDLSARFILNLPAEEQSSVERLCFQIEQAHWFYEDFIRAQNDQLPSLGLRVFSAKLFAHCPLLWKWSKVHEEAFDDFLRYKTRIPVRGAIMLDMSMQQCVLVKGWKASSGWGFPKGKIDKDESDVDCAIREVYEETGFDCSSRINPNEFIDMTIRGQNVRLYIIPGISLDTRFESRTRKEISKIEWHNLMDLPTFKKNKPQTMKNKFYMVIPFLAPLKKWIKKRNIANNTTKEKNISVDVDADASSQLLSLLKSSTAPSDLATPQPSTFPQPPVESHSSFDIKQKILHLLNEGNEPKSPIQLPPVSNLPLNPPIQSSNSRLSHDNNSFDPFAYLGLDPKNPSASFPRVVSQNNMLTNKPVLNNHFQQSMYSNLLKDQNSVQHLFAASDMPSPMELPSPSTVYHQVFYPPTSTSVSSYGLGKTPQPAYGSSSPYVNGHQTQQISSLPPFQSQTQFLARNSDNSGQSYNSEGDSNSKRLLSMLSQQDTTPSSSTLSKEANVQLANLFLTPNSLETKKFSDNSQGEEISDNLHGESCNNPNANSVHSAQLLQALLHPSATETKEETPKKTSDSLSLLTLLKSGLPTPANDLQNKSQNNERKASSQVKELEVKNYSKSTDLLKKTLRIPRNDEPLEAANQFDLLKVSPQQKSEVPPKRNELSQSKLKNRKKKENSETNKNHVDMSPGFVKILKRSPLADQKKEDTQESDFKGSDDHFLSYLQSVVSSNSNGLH
Sequence of UniProt P41145 (whole entry, looked up): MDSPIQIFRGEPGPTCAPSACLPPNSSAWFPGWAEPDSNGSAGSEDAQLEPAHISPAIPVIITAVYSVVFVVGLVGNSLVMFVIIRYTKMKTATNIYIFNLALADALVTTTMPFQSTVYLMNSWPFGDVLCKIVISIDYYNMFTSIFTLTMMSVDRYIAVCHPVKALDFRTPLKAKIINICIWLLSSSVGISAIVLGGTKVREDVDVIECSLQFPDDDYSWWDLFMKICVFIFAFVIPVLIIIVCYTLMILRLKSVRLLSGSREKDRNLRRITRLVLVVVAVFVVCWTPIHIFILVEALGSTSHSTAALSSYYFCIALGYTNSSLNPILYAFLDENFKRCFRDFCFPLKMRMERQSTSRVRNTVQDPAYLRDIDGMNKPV
Sequence of UniProt Q8IW41 (whole entry, looked up): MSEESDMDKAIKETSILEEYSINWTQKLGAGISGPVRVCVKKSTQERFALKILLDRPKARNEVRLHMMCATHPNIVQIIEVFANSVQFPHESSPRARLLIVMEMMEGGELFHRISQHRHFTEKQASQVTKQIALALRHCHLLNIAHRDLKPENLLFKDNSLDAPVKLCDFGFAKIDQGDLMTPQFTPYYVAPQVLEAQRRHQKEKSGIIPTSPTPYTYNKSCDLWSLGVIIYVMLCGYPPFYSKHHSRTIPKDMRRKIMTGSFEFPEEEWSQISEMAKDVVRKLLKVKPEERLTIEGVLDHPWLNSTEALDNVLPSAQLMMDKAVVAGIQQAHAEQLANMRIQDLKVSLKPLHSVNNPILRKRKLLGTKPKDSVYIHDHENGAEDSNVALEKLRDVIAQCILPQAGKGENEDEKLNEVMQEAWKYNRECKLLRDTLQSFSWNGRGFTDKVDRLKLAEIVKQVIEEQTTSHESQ
Sequence of UniProt O42275 (whole entry, looked up): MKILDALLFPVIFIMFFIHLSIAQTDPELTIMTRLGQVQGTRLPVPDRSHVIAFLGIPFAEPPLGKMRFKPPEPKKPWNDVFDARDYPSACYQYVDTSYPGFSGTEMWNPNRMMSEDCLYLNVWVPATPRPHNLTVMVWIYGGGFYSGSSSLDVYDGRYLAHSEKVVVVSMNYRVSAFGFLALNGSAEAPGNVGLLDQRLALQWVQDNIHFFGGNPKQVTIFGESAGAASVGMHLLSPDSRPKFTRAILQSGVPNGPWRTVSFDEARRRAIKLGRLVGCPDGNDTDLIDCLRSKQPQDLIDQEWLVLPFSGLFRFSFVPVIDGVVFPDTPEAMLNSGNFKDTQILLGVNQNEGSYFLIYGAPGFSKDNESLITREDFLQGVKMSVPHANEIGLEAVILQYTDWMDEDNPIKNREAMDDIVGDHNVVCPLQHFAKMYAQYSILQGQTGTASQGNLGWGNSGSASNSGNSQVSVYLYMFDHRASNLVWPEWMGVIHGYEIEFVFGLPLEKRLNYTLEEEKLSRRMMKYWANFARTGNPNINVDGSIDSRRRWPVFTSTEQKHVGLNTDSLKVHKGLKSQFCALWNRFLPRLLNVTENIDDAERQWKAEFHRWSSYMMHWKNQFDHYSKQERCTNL
Sequence of UniProt Q00536 (whole entry, looked up): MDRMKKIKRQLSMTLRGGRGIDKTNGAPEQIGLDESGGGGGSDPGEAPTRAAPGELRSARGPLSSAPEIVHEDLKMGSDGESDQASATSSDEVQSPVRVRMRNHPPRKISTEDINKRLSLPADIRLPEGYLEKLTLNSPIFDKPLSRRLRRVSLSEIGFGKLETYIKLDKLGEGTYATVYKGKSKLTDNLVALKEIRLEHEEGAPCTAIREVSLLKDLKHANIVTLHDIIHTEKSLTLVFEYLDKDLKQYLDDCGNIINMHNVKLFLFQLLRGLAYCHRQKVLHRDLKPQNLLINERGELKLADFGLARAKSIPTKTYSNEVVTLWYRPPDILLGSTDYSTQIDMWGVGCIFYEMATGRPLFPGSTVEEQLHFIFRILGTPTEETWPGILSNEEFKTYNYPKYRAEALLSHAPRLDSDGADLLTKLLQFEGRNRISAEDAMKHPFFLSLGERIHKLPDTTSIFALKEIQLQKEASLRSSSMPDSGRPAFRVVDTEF
Sequence of UniProt Q6DWJ6 (whole entry, looked up): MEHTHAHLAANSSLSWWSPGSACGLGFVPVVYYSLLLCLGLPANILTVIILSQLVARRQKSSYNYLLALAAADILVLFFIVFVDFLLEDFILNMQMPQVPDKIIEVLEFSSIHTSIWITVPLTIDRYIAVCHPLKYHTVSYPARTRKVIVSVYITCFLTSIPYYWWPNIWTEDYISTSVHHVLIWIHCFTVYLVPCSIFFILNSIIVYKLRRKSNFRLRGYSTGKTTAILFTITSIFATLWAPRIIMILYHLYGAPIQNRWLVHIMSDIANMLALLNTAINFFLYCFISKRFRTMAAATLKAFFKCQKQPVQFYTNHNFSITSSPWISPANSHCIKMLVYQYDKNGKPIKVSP
Sequence of UniProt P20309 (whole entry, looked up): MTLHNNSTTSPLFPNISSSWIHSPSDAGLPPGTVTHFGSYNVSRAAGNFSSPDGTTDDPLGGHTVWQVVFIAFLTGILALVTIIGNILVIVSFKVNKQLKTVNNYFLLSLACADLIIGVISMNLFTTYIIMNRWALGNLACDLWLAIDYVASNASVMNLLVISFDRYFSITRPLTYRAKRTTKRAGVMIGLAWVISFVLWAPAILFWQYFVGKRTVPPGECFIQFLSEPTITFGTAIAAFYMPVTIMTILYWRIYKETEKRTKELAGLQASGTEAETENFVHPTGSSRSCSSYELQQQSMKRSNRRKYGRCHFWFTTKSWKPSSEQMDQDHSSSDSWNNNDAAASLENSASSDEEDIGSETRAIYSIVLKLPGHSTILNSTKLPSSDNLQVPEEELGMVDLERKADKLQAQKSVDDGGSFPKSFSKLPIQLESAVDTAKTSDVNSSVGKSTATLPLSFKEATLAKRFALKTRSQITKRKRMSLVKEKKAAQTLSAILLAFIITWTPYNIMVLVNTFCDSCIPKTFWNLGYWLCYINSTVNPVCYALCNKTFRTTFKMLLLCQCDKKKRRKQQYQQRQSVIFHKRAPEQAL
Sequence of UniProt P54646 (whole entry, looked up): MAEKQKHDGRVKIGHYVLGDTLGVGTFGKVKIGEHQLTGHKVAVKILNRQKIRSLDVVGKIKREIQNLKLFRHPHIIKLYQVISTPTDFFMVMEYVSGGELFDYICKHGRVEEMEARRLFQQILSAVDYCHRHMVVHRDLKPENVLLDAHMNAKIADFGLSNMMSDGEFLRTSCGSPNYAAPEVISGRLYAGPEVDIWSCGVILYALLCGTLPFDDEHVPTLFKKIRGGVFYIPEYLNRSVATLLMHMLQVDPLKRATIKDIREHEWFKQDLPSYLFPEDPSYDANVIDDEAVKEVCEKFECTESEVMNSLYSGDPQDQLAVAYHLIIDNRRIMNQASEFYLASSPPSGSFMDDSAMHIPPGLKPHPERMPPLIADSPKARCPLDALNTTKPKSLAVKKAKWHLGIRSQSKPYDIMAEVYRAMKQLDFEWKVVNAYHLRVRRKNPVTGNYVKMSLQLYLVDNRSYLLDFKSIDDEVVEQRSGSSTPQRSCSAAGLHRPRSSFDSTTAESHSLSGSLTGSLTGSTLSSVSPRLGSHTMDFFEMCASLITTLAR

`CCn1nc(Cl)c2c1-c1cnc(N)c(c1)O[C@H](C)c1cc(F)ccc1-c1nn(C)cc1C2` gave a selectivity ratio of 171 fold (EPHB1 (Homo sapiens, UniProt P54762); kinase activity, inhibitor; relative to: IC50 EPHB1 over IC50 ALK).
With `CCc1nnc(-c2c(OC)cc(-c3cnc4cc(-c5cnn(C)c5)ccn34)cc2OC)o1` the remaining binding was 97.8% (CHRM3 (Homo sapiens, UniProt P20309); antagonist radioligand, radioligand binding; 10 µM, SafetyScreen44 M3 replicate 2; lower = stronger displacement).
For `O=C(NC1CCN(c2ncnc3[nH]cnc23)CC1)c1cccc(NS(=O)(=O)c2ccc(C(F)(F)F)cc2)c1`, the inhibition was -4.08% (Genome polyprotein, NS5 methyltransferase domain (Zika virus, UniProt Q32ZE1); NS5 enzyme activity, inhibitor; 25 µM).
`CC(C)[C@H]1NC(=O)C[C@H]2/C=C/CCSSC[C@@H](NC1=O)C(=O)N[C@H](Cc1cccc3ccccc13)C(=O)NCC(=O)O2` has an inhibition of -0.323% (5'-AMP-activated protein kinase catalytic subunit alpha-2, with beta1 gamma1 (PRKAA2, Homo sapiens, UniProt P54646); 10 µM).
`O=C(Cc1ccc(Cl)c(Cl)c1)N1CCN(Cc2ccccc2)[C@@H]2COC[C@H](N3CCCC3)[C@H]21` (single isomer, unassigned) has an Emax of 65% (OPRK1 (Homo sapiens, UniProt P41145); β-arrestin-2 recruitment, agonist; U2OS; 1.5 h; relative to: U-69593 maximal response).
With `C[n+]1cn([C@@H]2O[C@H](COP(=O)([S-])OP(=O)(O)OP(=O)(O)OP(=O)([S-])OC[C@H]3O[C@@H](n4c[n+](C)c5c(O)nc(N)nc54)[C@H](O)[C@@H]3O)[C@@H](O)[C@H]2O)c2nc(N)nc(O)c21` (stereo partly drawn) the kmax was 0.15 ± 0.01 min⁻¹ (mRNA decapping complex subunit 2 (dcp2, Schizosaccharomyces pombe, UniProt O13828); single-turnover kinetics; 29-nt native-capped RNA substrate; 0.5 mM).
`CN(C)[C@H]1C[C@@]23CC[C@@]4(O2)C(=CC[C@]2(C)[C@@H](c5ccc6ccncc6c5)CC[C@H]24)C=C3[C@@H](O)[C@@H]1O` has an inhibition of -14.4% (CDK16 (Homo sapiens, UniProt Q00536); ATP probe labelling, inhibitor, KiNativ profiling; 1 µM).
`O=C1NC(=O)c2c1c1cc(F)c[n+]3c1c1c2c2cc(O)ccc2[n]1[Ru-4]312([N]=C=S)[S+]3CC[S+]1CC[S+]2CC3` (stereo not drawn) has a remaining activity of 66% (MAPKAPK5 (Homo sapiens, UniProt Q8IW41); enzyme activity; 100 nM, human enzyme, added: 10 µM ATP; relative to: untreated).
For `CC[C@H](C)[C@H](NC(=O)[C@H](CCCNC(=N)N)NC(=O)[C@H](CCCNC(=N)N)NC(=O)[C@H](CC(C)C)NC(=O)[C@H](Cc1ccccc1)NC(=O)CNC(=O)CNC(=O)[C@@H](N)Cc1ccc(O)cc1)C(=O)N[C@@H](CCCNC(=N)N)C(=O)N1CCC[C@H]1C(=O)N[C@@H](CCCCN)C(=O)N[C@@H](CC(C)C)C(=O)N[C@@H](CCCCN)C(=O)O`, the Emax was 5.85% (GPR139 (Homo sapiens, UniProt Q6DWJ6); GαsS activation, agonist, BRET; HEK293T/17; 40 µM).
For `CS(C)(=O)=Nc1ccc(-c2ccc(-c3nc4cc(O[C@@H]5CO[C@H]6[C@@H]5OC[C@H]6O)[nH]c4cc3F)cc2)cc1`, the inhibition was 29% (KATP channel; binding, radioligand binding; 10 µM).
The selectivity index of `Cc1ccc(-c2csc(NN=C(C=Cc3c(Cl)cccc3Cl)C(=O)O)n2)cc1` is reported as 12.1 (ache (Electrophorus electricus, UniProt O42275); Ellman; relative to: IC50 BChE over IC50 AChE).
`N[C@H](C(=O)N1CCCC1)C1CCN(c2nccc3c(-c4ncc(Cl)cc4Cl)cccc23)CC1` gave a kcat of 0.0534 s⁻¹ and 0.0569 s⁻¹ (PADI2 (Homo sapiens, UniProt Q9Y2J8); enzyme activity; 1.536 µM, added: Ca2+ 0.25 mM).
